Assay results pooled from the literature.
Each line is one published result; not all experiments were run side by side. ± marks the error that the study gave. In brackets after ≈: the same amount, converted by molar mass.

Molecule | organism | assay | test system | setting | how to read | quantity | result
CO/N=C(\N)c1ccc(-c2cncc(-c3ccc(/C(N)=N\OC)cc3)n2)cc1 | Trypanosoma brucei rhodesiense |  | STIB900, mouse, acute infection | oral, 25 mg/kg daily, 4 days, parasite-free survival 60 days |  | cured mice | 75%
CO/N=C(\C(=O)N[C@@H]1C(=O)N2C(C(=O)O)=C(CSc3nc(=O)c(=O)[nH]n3C)CS[C@H]12)c1csc(N)n1 | Staphylococcus aureus | checkerboard broth microdilution | clinical isolate 21-99 | added: magainin II |  | FIC index | 0.25
COc1c(Cl)c(C)c(C=O)c(O)c1C/C=C(C)/C=C/[C@@]1(C)[C@H](C)CCC(=O)[C@@H]1C | Wickerhamomyces anomalus | O2 uptake, inhibitor | mitochondria | added: malate and pyruvate 15 mM |  | IC50 | 5900 nM
Cc1ccc(S(=O)(=O)N2C(=O)CSC2c2cccc(F)c2)cc1 (stereo not drawn) | Streptococcus pneumoniae | broth microdilution | ATCC 49619 |  |  | MIC | 32 µg/mL (≈ 91.1 µM)
CN(C)c1ccc(O)c2c1C[C@H]1C[C@H]3[C@H](N(C)C)C(O)=C(C(N)=O)C(=O)[C@@]3(O)C(O)=C1C2=O | Litomosoides sigmodontis |  | mouse | i.p., 25 mg/kg/day for 10 days |  | worm length reduction | 81.7%
CC[C@H]1OC(=O)[C@H](C)[C@@H](O[C@H]2C[C@@](C)(OC)[C@@H](O)[C@H](C)O2)[C@H](C)[C@@H](O[C@@H]2O[C@H](C)C[C@H](N(C)C)[C@H]2O)[C@](C)(OC)C[C@@H](C)C(=O)[C@H](C)[C@@H](O)[C@]1(C)O | Staphylococcus aureus | checkerboard | ATCC 25923 | added: magainin II |  | FIC index | 0.75
CC(C)=CCCC(C)=CC=O (mixture of isomers) | Cryptococcus neoformans |  | CN, PBS | 2 x MIC, up to 48 h, 37 °C | baseline: untreated | time to 1 log10 kill | 19 to 20 h
CC(/C=C/[C@@]1(C)[C@H](C)CCC(=O)[C@@H]1C)=C\Cc1c(O)c(Cl)c(C)c(C=O)c1O | Wickerhamomyces anomalus | O2 uptake, inhibitor | mitochondria | added: NADH 1 mM |  | IC50 | 35 nM
O=C(/C=C/c1cccc(O)c1)c1ccc(F)cc1 | Plasmodium knowlesi | parasite growth |  | 24 h, blood stage |  | EC50 | 29000 nM
CC[C@H]1OC(=O)[C@H](C)[C@@H](O[C@H]2C[C@@](C)(OC)[C@@H](O)[C@H](C)O2)[C@H](C)[C@@H](O[C@@H]2O[C@H](C)C[C@H](N(C)C)[C@H]2O)[C@](C)(O)C[C@@H](C)CN(C)[C@H](C)[C@@H](O)[C@]1(C)O | other non-fermenting bacteria |  | community-acquired pneumonia patients | Fine score 70 or more |  | sensitive strains | 0%
Cc1ccc(Cn2cc(/C=N/N3C(=O)CSC3=S)c3cc([N+](=O)[O-])ccc32)cc1 | Trypanosoma brucei gambiense |  | trypomastigotes, IL1922 |  |  | IC50 | > 58000 nM
N/C(=N\O)c1ccc(-c2cncc(-c3ccc(/C(N)=N/O)cc3)n2)cc1 | Trypanosoma brucei rhodesiense |  | STIB900, mouse, acute infection | oral, 25 mg/kg daily, 4 days, parasite-free survival 60 days |  | cured mice | 100%
Cc1ccc(S(=O)(=O)N2C(=O)CSC2c2ccccc2)cc1 (stereo not drawn) | Streptococcus pneumoniae | broth microdilution | ATCC 49619 |  |  | MIC | 128 µg/mL (≈ 384 µM)
CC[C@H](C)[C@H](NC(=O)CNC(=O)[C@H](CCC(=O)O)NC(=O)[C@H](CO)NC(=O)[C@@H](NC(=O)[C@H](CCCNC(=N)N)NC(=O)[C@H](CCCCN)NC(=O)[C@H](CCCCN)NC(=O)[C@H](C)NC(=O)[C@H](CO)NC(=O)[C@H](CC(N)=O)NC(=O)[C@H](CCC(=O)O)NC(=O)[C@H](CC(C)C)NC(=O)[C@H](CCCCN)NC(=O)[C@H](CCCCN)NC(=O)[C@H](C)NC(=O)[C@@H](NC(=O)[C@H](CCCCN)NC(=O)[C@H](CO)NC(=O)[C@H](CC(C)C)NC(=O)[C@H](Cc1c[nH]c2ccccc12)NC(=O)[C@@H](N)CO)[C@@H](C)O)[C@@H](C)CC)C(=O)N[C@@H](C)C(=O)N[C@H](C(=O)N[C@@H](C)C(=O)N[C@H](C(=O)N[C@@H](CCC(N)=O)C(=O)NCC(=O)NCC(=O)N1CCC[C@H]1C(=O)N[C@@H](CCCNC(=N)N)C(=O)O)[C@@H](C)CC)[C@@H](C)CC | Staphylococcus aureus | broth microdilution | methicillin-susceptible clinical isolates, Mueller-Hinton broth | 18 h, 35 °C |  | MIC50 | 16 µg/mL (≈ 4.79 µM)
O=C(Nc1ccc(Cl)cc1)N1CCN(c2ccc3nncn3n2)CC1 | Cryptosporidium parvum |  | HCT-8 | corrected for mouse protein binding |  | EC90 | 2800 nM
CC(C=CC1(C)C(C)CCC(=O)C1C)=CCc1c(O)c(C=O)c(C)c(Cl)c1OC(=O)c1cccnc1 (stereo not drawn) | Wickerhamomyces anomalus | O2 uptake, inhibitor | mitochondria | added: succinate 15 mM |  | IC50 | 740 nM
Clc1nc(Cl)c2[nH]cnc2n1 | Helicobacter pylori | microbial growth, absorbance | 26695 | 1.25 mM |  | inhibition | 93%

Molecule | organism | assay | test system | setting | how to read | quantity | result
C/C=C(C)/C=C/C=C/[C@H](OC)[C@@H](C)[C@@H](OC)[C@@H](C)CCc1oc2c(O)c(OC)cc(OC)c2c(=O)c1C | Wickerhamomyces anomalus | O2 uptake, inhibitor | mitochondria | added: malate and pyruvate 15 mM |  | IC50 | 42 nM
CCCC(=O)Nc1ncnc2c1ncn2[C@@H]1O[C@@H]2COP(=O)(O)O[C@H]2[C@H]1OC(=O)CCC | Bufo marinus | agonist | urinary bladder |  | baseline: deamino-oxytocin | relative maximal response | 0.8
CC[C@H]1OC(=O)[C@H](C)[C@@H](O[C@H]2C[C@@](C)(OC)[C@@H](O)[C@H](C)O2)[C@H](C)[C@@H](O[C@@H]2O[C@H](C)C[C@H](N(C)C)[C@H]2O)[C@](C)(O)C[C@@H](C)C(=O)[C@H](C)[C@@H](O)[C@]1(C)O | other non-fermenting bacteria |  | community-acquired pneumonia patients | Fine score 70 or more |  | sensitive strains | 0%
CC(C=CC1(C)C(C)CCC(=O)C1C)=CCc1c(O)c(C=O)c(C)c(Cl)c1OCC(=O)O (stereo not drawn) | Wickerhamomyces anomalus | O2 uptake, inhibitor | mitochondria | added: NADH 1 mM |  | IC50 | 44000 nM
C[C@@H](O)[C@H]1C(=O)N2C(C(=O)O)=C(S[C@@H]3CN[C@H](C(=O)N(C)C)C3)[C@H](C)[C@H]12 | Staphylococcus aureus | checkerboard broth microdilution | clinical isolate 14-99 | added: magainin II |  | FIC index | 0.375
Fc1cc(-c2nc3ccc(Cl)cc3[nH]2)ccc1OCc1cn(CCN2CCOCC2)nn1 | Enterococcus faecalis | microbial growth, broth dilution | ATCC29212 |  |  | MIC | > 256 µg/mL
Cc1ccc(S(=O)(=O)N2C(=O)CSC2c2ccccc2C)cc1 (stereo not drawn) | Streptococcus pneumoniae | broth microdilution | ATCC 49619 |  |  | MIC | 128 µg/mL (≈ 368 µM)
O=C(N[C@H](Cc1c[nH]c2ccccc12)C(=O)Nc1ccncc1)c1ccc(-c2cc(C(F)(F)F)ccc2F)cc1F | Trypanosoma cruzi |  | Y luc, mouse | oral, 50 mg/kg twice daily, 4 days, vehicle 20% Solutol |  | parasite inhibition | > 90%
N/C(=N\O)c1ccc(-c2cncc(-c3ccc(/C(N)=N\O)nc3)n2)cn1 | Trypanosoma brucei rhodesiense |  | STIB900, mouse, acute infection | oral, 25 mg/kg daily, 4 days, parasite-free survival 60 days |  | cured mice | 100%
CC(C)Nc1ccc(NC(=O)c2cc(Cl)ccc2O)c(Cl)c1 | human respiratory syncytial virus | infectious progeny production | A549 | 10 µM, 15 h | baseline: vehicle | virus titre log reduction | ~1.8 log10
Cc1ncc([N+](=O)[O-])n1CCO | Helicobacter pylori | bacterial growth, OD600 | 26695 | 12 µM |  | inhibition | 89 to 92%
CC(C)=CCC/C(C)=C/CO | Cryptococcus neoformans |  | CN, PBS | 2 x MIC, up to 48 h, 37 °C | baseline: untreated | time to 1 log10 kill | 9 to 10 h
C[C@H]1c2cccc(O)c2C(=O)C2=C(O)[C@]3(O)C(=O)C(C(N)=O)=C(O)[C@@H](N(C)C)[C@@H]3[C@@H](O)[C@@H]21 | Staphylococcus aureus | checkerboard broth microdilution | clinical isolate 14-99 | added: magainin II |  | FIC index | 1
Cc1[nH]c2ccccc2c(=O)c1CC=C(Cl)Cl | Trypanosoma cruzi | imaging | 3T3 fibroblasts, amastigote | 48 h |  | IC50 | 1230 ± 610 nM
colistin | Staphylococcus aureus | checkerboard broth microdilution | ATCC 25922 | added: magainin II |  | FIC index | 1.5
NS(=O)(=O)c1nnc(NC(=O)CCc2ccccc2)s1 | Neisseria gonorrhoeae | broth microdilution | clinical isolates |  |  | MIC90 | 4 µg/mL (≈ 12.8 µM)

Repeated from above:
Molecule | organism | assay | test system | setting | how to read | quantity | result
Fc1cc(-c2nc3ccc(Cl)cc3[nH]2)ccc1OCc1cn(CCN2CCOCC2)nn1 | Enterococcus faecalis | microbial growth, broth dilution | ATCC29212 |  |  | MIC | > 256 µg/mL
Cc1ccc(Cn2cc(/C=N/N3C(=O)CSC3=S)c3cc([N+](=O)[O-])ccc32)cc1 | Trypanosoma brucei gambiense |  | trypomastigotes, IL1922 |  |  | IC50 | > 58000 nM
Cc1[nH]c2ccccc2c(=O)c1CC=C(Cl)Cl | Trypanosoma cruzi | imaging | 3T3 fibroblasts, amastigote | 48 h |  | IC50 | 1230 ± 610 nM
C[C@H]1c2cccc(O)c2C(=O)C2=C(O)[C@]3(O)C(=O)C(C(N)=O)=C(O)[C@@H](N(C)C)[C@@H]3[C@@H](O)[C@@H]21 | Staphylococcus aureus | checkerboard broth microdilution | clinical isolate 14-99 | added: magainin II |  | FIC index | 1
CC[C@H]1OC(=O)[C@H](C)[C@@H](O[C@H]2C[C@@](C)(OC)[C@@H](O)[C@H](C)O2)[C@H](C)[C@@H](O[C@@H]2O[C@H](C)C[C@H](N(C)C)[C@H]2O)[C@](C)(O)C[C@@H](C)C(=O)[C@H](C)[C@@H](O)[C@]1(C)O | other non-fermenting bacteria |  | community-acquired pneumonia patients | Fine score 70 or more |  | sensitive strains | 0%
